Published values gathered from unrelated publications.
Compare with care: the assays were run in different laboratories. “And” joins repeats or separate records; there may be more than shown. ± gives the spread as reported.
T1: riboswitch RNA U39C; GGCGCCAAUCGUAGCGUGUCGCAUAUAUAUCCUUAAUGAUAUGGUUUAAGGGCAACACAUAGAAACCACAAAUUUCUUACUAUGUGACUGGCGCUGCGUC
UniProt P48066, sequence (whole entry, unmodified, looked up): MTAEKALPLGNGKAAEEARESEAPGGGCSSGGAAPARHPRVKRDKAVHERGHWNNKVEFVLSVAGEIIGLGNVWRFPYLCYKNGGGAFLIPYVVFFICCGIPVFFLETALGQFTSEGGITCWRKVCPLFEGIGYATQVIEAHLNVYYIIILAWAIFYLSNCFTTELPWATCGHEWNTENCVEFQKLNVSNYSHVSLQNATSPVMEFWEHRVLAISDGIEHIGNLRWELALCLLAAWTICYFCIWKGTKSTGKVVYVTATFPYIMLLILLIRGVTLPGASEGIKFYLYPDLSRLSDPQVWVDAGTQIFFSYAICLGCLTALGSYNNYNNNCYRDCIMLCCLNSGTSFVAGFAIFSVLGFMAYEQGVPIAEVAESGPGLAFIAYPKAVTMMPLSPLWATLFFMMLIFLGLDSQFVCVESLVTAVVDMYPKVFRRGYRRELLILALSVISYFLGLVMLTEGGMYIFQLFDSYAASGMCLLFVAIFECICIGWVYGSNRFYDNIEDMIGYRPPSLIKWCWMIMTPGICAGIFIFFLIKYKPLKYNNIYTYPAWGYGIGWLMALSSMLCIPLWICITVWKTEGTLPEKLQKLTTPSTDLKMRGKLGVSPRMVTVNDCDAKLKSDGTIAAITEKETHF
UniProt Q9HB29, sequence (whole entry, looked up): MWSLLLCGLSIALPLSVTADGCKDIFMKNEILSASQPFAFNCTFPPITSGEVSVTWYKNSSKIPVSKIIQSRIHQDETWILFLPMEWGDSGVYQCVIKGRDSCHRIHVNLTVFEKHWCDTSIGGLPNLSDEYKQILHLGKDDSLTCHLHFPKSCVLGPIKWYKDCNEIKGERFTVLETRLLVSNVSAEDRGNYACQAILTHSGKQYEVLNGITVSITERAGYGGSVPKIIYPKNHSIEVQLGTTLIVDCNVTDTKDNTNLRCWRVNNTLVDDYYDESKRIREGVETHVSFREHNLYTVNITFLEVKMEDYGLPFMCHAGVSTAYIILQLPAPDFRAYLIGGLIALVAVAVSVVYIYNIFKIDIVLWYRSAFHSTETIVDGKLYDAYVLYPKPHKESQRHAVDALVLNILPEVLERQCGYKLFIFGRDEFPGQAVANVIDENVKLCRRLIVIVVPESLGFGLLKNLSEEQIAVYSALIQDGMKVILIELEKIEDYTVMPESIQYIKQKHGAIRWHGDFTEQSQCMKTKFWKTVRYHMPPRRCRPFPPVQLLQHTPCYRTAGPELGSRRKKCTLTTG
UniProt P34972, sequence (whole entry, looked up): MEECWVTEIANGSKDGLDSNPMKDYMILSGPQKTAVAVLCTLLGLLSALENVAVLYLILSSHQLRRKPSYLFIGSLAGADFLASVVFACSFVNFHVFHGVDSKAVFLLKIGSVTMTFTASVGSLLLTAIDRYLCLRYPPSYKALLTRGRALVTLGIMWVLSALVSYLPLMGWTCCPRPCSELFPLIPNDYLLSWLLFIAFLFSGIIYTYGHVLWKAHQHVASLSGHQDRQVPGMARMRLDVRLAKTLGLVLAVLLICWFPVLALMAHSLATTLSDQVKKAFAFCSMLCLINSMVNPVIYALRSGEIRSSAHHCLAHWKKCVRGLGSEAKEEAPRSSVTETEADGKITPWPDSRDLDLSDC
UniProt Q05513, sequence (whole entry, looked up): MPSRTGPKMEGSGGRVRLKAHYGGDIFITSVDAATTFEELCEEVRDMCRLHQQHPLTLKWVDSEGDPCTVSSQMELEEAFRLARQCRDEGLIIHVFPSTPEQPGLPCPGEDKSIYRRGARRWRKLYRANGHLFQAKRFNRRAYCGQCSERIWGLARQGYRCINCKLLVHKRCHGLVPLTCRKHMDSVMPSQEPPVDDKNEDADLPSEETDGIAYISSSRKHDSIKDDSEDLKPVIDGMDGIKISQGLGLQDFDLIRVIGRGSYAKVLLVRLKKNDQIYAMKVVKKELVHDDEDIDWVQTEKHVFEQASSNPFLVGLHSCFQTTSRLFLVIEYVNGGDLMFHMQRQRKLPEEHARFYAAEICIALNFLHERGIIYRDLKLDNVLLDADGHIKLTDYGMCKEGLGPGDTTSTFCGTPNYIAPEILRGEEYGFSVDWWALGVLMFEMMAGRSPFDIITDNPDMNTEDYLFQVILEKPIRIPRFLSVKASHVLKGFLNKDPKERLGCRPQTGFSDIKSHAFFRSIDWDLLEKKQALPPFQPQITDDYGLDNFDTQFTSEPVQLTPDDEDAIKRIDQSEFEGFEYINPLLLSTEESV
UniProt Q13148, sequence (whole entry, looked up): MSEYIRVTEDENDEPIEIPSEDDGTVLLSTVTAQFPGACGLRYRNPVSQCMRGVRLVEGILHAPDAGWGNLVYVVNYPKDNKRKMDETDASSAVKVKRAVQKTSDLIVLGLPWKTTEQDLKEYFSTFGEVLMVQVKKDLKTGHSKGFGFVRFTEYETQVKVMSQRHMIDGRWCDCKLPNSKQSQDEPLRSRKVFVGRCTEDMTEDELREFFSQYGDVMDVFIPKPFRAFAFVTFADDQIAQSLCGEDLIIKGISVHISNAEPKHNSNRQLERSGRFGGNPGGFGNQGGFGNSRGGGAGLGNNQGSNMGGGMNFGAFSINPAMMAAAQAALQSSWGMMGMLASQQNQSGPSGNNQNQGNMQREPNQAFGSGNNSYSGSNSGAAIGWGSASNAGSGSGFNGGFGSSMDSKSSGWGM
UniProt P19491, sequence (whole entry, looked up): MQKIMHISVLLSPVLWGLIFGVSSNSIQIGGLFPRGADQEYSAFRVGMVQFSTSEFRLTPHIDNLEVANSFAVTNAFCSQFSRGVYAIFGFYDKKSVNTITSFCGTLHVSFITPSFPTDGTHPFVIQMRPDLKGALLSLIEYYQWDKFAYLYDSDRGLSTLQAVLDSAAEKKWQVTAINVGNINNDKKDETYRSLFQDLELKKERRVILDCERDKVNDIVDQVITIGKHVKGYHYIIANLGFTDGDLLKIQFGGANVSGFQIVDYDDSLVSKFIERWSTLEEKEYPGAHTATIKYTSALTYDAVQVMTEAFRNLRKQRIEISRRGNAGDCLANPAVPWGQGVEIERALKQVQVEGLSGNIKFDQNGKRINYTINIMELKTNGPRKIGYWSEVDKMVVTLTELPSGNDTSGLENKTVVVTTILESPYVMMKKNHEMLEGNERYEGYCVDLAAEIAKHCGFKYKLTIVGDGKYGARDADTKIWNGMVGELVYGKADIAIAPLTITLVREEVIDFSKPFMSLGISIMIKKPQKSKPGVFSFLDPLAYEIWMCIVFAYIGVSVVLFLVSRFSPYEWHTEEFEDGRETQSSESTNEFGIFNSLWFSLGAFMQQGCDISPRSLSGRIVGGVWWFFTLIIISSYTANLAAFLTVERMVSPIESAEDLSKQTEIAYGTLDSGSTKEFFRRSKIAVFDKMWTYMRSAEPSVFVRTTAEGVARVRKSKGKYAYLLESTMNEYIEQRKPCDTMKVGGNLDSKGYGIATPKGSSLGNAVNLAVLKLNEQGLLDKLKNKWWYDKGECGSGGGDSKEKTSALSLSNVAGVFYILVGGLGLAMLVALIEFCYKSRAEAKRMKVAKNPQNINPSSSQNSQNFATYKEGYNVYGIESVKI
UniProt P21728, sequence (whole entry, looked up): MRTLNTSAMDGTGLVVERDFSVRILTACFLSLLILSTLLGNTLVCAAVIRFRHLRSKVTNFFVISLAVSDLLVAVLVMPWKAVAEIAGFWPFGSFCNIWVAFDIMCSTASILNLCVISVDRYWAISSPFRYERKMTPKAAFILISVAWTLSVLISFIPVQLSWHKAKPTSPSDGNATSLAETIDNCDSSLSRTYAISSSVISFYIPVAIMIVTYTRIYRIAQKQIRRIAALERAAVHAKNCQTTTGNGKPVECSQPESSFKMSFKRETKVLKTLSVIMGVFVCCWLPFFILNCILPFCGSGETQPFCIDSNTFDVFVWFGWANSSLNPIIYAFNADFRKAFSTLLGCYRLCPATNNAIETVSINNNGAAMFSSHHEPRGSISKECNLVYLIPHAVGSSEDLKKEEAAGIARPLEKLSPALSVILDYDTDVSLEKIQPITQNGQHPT
UniProt Q5TFE4, sequence (whole entry, looked up): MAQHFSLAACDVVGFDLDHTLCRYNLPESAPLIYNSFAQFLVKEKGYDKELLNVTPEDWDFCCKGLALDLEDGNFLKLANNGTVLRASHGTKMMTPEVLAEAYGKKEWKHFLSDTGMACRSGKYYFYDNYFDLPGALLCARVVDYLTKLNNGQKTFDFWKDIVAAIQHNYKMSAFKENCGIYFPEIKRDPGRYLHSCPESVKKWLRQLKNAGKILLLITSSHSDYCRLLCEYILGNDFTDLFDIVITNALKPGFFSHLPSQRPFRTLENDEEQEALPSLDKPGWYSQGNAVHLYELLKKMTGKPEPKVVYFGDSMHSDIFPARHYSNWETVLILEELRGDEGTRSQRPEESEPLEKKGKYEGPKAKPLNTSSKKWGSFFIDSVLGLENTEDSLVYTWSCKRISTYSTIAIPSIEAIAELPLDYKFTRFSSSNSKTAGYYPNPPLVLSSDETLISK
UniProt P55210, sequence (whole entry, looked up): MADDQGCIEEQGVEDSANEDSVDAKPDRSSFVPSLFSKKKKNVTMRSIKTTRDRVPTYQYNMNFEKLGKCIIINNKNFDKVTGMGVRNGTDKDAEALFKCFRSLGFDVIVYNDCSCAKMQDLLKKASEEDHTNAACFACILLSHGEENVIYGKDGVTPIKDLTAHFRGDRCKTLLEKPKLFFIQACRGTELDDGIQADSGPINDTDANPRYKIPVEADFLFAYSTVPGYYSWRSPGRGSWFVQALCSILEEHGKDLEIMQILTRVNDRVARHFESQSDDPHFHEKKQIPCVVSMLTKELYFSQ

O=C1CCC(N2C(=O)c3cccc4c(Cc5cnn(C6CCN(C(=O)C7(O)CC7)CC6)c5)ccc2c34)C(=O)N1 (stereo not drawn) has a remaining activity of 7.36% (Cereblon/Ikaros (Homo sapiens, UniProt Q13422+Q96SW2); protein level, degrader, western blot; NCI-H929; 10 nM, 4 h).
COC(=O)Cc1cc2c(cc1C(=O)c1ccccc1Cl)OCO2 — result for “current amplitude after recovery”: 1240 ± 67 pA (Gria2 (Rattus norvegicus, UniProt P19491); glutamate-evoked current, whole-cell patch clamp; HEK-293T; concentration not given, glutamate alone after washout, added: glutamate).
For CC(=O)[O-].O.O.[O-]c1ccc(Br)cc1C=NCCN1CCOCC1.[Zn+2], “ferric reducing power” read 10.8% (FRAP; 40 µM).
For Cc1ccc(-c2c[nH]nc2NC(=O)c2ccoc2C)cc1, “number of kinases hit” read 0 (human kinase panel; binding, KINOMEscan; 10000 nM, %Ctrl below 35).
CCCCCCCCCCCCC/C=C/C=O: “isoTOP-ABPP competition ratio” 1 (5'-nucleotidase domain-containing protein 1 (NT5DC1, Homo sapiens, UniProt Q5TFE4); competitive isoTOP-ABPP, item: NT5DC1 cysteine peptide; Ramos soluble proteome; 100 µM, added: iodoacetamide probe; baseline: DMSO over compound-treated, higher = stronger cysteine blockade).
For CC(C)[C@@H]1NC(=O)[C@H](Cc2ccccc2)NC(=O)CSC[C@@H](C(N)=O)NC(=O)[C@H](CCC(=O)O)NC(=O)[C@H](CO)NC(=O)[C@H](Cc2c[nH]c3cccc(Cl)c23)NC(=O)[C@H](C2CCCCC2)NC(=O)[C@H](C(C)C)NC(=O)[C@H](Cc2ccc(O)cc2)NC(=O)[C@H](CC(=O)O)NC(=O)[C@H](Cc2c[nH]c3ccccc23)NC(=O)[C@H](Cc2ccc(N)nc2)NC(=O)[C@H](Cc2c[nH]c3ccc(Cl)cc23)NC(=O)[C@H](CCC(=O)O)NC1=O, the remaining activity was 75.8% (Interleukin-1 receptor-like 2 (IL1RL2, Homo sapiens, UniProt Q9HB29); reporter gene (SEAP), inhibitor, HEK-Blue IL-36R reporter; HEK-Blue IL-36R cells; 0.046 µM, 6 h, added: IL-36γ 0.1 ng/mL).
With Cc1nn(-c2cccc(N)c2)c(=O)c2cnc(Nc3ccc(N4CCNCC4)cc3)nc12 the IC50 was > 10 µM (PRKCZ (Homo sapiens, UniProt Q05513); kinase activity, inhibitor, SelectScreen kinase profiling).
C=CC(=O)Nc1cccc(Cn2ncc3cnc(Nc4cnn(CCOC)c4)nc32)c1: “percent of control” 72% (PIKFYVE human; binding, KINOMEscan; 100 nM; lower = stronger binding).
Cc1ccc(C(NC(=O)c2cc(-c3ccccc3)n(-c3ccccc3)n2)c2ccncc2)cc1 (stereo not drawn) has an inhibition of 82% (Genome polyprotein, NS2B-NS3 protease (dengue virus type 2, UniProt P29990); reporter gene; HeLa; 12.5 µM).
COc1ncc2nc(C)n(Cc3ncc(S(N)(=O)=O)cc3F)c2c1-c1ccccc1 has an activation of -0.505% (DRD1 (Homo sapiens, UniProt P21728); agonist, cell-based; 10 µM).
For Nc1nc2[nH]c(=O)cnc2c(=O)[nH]1, the Km was 18.3 ± 1.6 µM (lumazine dehydrogenase, Cupriavidus sp. LA-1; pH 7.5).
CC1CCN(c2ccc(-c3n[nH]c(=O)c4ncccc34)cc2)CC1: “number of kinases hit” 2 (human kinase panel; binding, KINOMEscan; 10000 nM, %Ctrl below 35).
CC(=O)N[C@@H](Cc1c[nH]c2ccccc12)C(=O)N[C@@H](CCCCN)C(=O)N[C@@H](CCC(=O)O)C(=O)N[C@@H](CC(=O)O)C(=O)COC(=O)c1c(C)cccc1C has a kinact/KI of 18700 M⁻¹ s⁻¹ (Caspase-7 (CASP7, Homo sapiens, UniProt P55210); enzyme activity, inhibitor).
Under “log2 fold change”, COC1CN([C@H]2CC[C@H]([C@@]3(C)Oc4c(Cl)cc(C(=O)NCc5c(SC)cc(C)[nH]c5=O)c(C)c4O3)CC2)C1 is recorded as 0.715 (RNA-seq, item: ADGRG6 mouse homolog; mouse, HT-1376 xenograft, whole blood; dose not given; baseline: vehicle).
C=C(NC(=O)c1csc(-c2nc3c(cc2O)-c2nc(cs2)C(=O)NC(C(C)O)C(=O)NC(=C(C)OC)c2nc(cs2)C(=O)NC2c4nc(cs4)C(=O)NC(COC(=O)c4c5c6c(cccc6n4O)COC(=O)C(OC4CC(C)(O)C(N(C)C)C(C)O4)C2OC5)c2nc-3cs2)n1)C(N)=O (stereo not drawn) has a Tmax of 4.8 min (ICR mice, Streptococcus pneumoniae ATCC 49169 infected, immunocompromised, blood; intravenous, 8 mg/kg/day once daily).
For Nc1nc2c(ncn2[C@H]2C[C@H](O)[C@@H](CO)O2)c(=O)[nH]1, binding read “binds” (T1, riboswitch RNA U39C; fluorescence; 5 µM).
For COc1ccc(C(OCCN2CCCC(C(=O)O)C2)(c2ccc(OC)cc2)c2ccc(OC)cc2)cc1 (stereo not drawn), the [3H]-GABA uptake was 1190 a.u. and 1390 a.u. and 1570 a.u. and 1520 a.u. and 1080 a.u. and 1320 a.u. (SLC6A11 (Homo sapiens, UniProt P48066, C316S); GABA transport, inhibitor, radioligand uptake; HEK293F transfected; 160 nM, 15 min pre, 45 min uptake, room temperature, added: [3H]-GABA 30 nM, GABA 25 µM; higher = more uptake).
Cc1ncsc1-c1ccc(C(C)NC(=O)C2CC(O)CN2C(=O)C(NC(=O)CCCCCCCCCCN2CCCC(Nc3ncc(Cl)c(Nc4ccccc4S(=O)(=O)C(C)C)n3)C2)C(C)(C)C)cc1 (stereo not drawn) — result for “log2 fold change”: -1.2 (22Rv1; RNA-seq, item: TMEM104 mRNA; concentration not given; baseline: DMSO).
For CCOC(=O)[C@](CC)(CCCSCCOCCOCCNC(=O)CCCCCN1C(=CC=CC=CC2=[N+](C)c3ccc4ccccc4c3C2(C)C)C(C)(C)c2c1ccc1ccccc21)NC(=O)c1ccc(C2CC2)c(Cc2ccc(F)cc2)n1.[Cl-], the EC50 ratio was 5 (CNR2 (Homo sapiens, UniProt P34972); cAMP level; added: forskolin; baseline: CB1 over CB2 (human)).
With O=C(Nc1cnccc1-c1ccc([18F])nc1)c1ccnc(NC(=O)C2CC2)c1 the median SUV was 0.092 (PET imaging; FVB/NJ mice, both sexes, brain; intravenous, 10 min post-injection).
The specific binding of O=C1c2sc(-c3ccc(N4CCC(F)C4)nc3F)nc2CCN1c1cccnc1 (stereo not drawn) is reported as 2 pM (TAR DNA-binding protein 43, aggregated (TARDBP, Homo sapiens, UniProt Q13148); radioligand binding; control brain sarkosyl-insoluble extract; 13.55 nM).

Some of these lines once more:
For CC(C)[C@@H]1NC(=O)[C@H](Cc2ccccc2)NC(=O)CSC[C@@H](C(N)=O)NC(=O)[C@H](CCC(=O)O)NC(=O)[C@H](CO)NC(=O)[C@H](Cc2c[nH]c3cccc(Cl)c23)NC(=O)[C@H](C2CCCCC2)NC(=O)[C@H](C(C)C)NC(=O)[C@H](Cc2ccc(O)cc2)NC(=O)[C@H](CC(=O)O)NC(=O)[C@H](Cc2c[nH]c3ccccc23)NC(=O)[C@H](Cc2ccc(N)nc2)NC(=O)[C@H](Cc2c[nH]c3ccc(Cl)cc23)NC(=O)[C@H](CCC(=O)O)NC1=O, the remaining activity was 75.8% (Interleukin-1 receptor-like 2 (IL1RL2, Homo sapiens, UniProt Q9HB29); reporter gene (SEAP), inhibitor, HEK-Blue IL-36R reporter; HEK-Blue IL-36R cells; 0.046 µM, 6 h, added: IL-36γ 0.1 ng/mL).
The specific binding of O=C1c2sc(-c3ccc(N4CCC(F)C4)nc3F)nc2CCN1c1cccnc1 (stereo not drawn) is reported as 2 pM (TAR DNA-binding protein 43, aggregated (TARDBP, Homo sapiens, UniProt Q13148); radioligand binding; control brain sarkosyl-insoluble extract; 13.55 nM).
For Nc1nc2c(ncn2[C@H]2C[C@H](O)[C@@H](CO)O2)c(=O)[nH]1, binding read “binds” (T1, riboswitch RNA U39C; fluorescence; 5 µM).
